Measurements gathered from unrelated publications.
Each numbered part is a random draw from the data of one study; scales do not carry over between parts.
Chain of UniProt P43250 (whole entry, looked up): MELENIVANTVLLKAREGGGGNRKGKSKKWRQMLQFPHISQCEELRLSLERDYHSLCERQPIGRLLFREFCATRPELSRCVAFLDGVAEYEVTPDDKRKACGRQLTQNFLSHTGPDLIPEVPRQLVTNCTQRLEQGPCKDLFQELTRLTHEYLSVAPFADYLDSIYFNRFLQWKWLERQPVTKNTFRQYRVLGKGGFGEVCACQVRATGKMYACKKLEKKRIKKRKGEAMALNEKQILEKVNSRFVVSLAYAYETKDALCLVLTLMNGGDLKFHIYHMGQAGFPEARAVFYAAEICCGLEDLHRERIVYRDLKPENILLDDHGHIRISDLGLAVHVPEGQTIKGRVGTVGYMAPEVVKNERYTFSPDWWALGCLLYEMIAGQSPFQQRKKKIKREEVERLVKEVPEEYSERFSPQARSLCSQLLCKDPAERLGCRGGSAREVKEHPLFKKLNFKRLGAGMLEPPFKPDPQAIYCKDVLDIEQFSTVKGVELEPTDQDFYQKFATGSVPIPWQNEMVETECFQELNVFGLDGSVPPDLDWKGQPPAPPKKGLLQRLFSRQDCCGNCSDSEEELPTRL

Series 1
Target: RING finger protein unkempt homolog, zinc fingers 1-6, SBP tag (UNK, Homo sapiens, UniProt Q9C0B0, residues 30-357)
Chain of UniProt Q9C0B0 (30-357, looked up): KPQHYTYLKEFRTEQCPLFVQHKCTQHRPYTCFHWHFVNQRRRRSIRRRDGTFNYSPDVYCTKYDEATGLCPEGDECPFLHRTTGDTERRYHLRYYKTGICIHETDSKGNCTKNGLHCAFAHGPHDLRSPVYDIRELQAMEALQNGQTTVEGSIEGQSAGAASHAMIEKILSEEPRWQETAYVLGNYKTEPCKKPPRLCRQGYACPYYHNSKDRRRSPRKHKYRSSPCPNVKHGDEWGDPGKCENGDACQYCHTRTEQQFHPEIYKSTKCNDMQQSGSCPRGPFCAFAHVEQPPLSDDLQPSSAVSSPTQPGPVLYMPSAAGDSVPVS
Method: RNA Bind-n-Seq
Molecule type: RNA
Sample: in vitro
Tested at: 100 nM
Notes: RNA with constant flanks, vertebrate orthologous sites, ends assumed
Baseline: input RNA pool
Reading: higher = stronger binding
Endpoint: bound/input enrichment
Shared flanks, not repeated: GGGAGUUCUACAGUCCGACGAUC … CAACAGAGGAUUGAGCAUCA
UCCGGGUGUACCUGUGGGCGCUGCUGGCCACGUAGCGUCAUUUGAUUUAUGACCUUGACAUAAUAGAUAGGCUUGUGGUUUUUUAAUUUAAAGAUAUUAAGACUUAAUUUACUAAAAUUU: 0.478 ratio
GUAUCUUGGUUUGGGGUAGAGGGGAGGGAGGGGCAGGGCUGUGGAAUCUCUCCGGUAUAUGGGUAGAUAAGUGGACCUAUGUGAACCUCUGGGGCAUCUGUUUUGGGGGGUGAGUAUGGG: 0.986 ratio
CGGCAGAUUCUCUCAUAGGGAGAGCUGCACACAUUGCUGUUCUUGAUUCAGAAAUAUUUUUAGAAAAAUUCUUUCUUGUUGCUGCCCUAAAAUAUUUUCAGUAGGGAAUAGCAUUCUAAG: 0.317 ratio
UGGGUUACUCCUAUUAUUAUCAAGUAGCUGGAAUUGUGAAGUUCGGAGUAGUUAGAUCUUUAGCUUUUAUUCCUUAUUUUUUUGUAUUACUCUCCAUGUGUAUAAAUUAUUGAUCAUGUU: 4.41 ratio
GAUAAUCACUCUAAUUGUAACCUGAAGAAAGUGUAACAUUGUGUAGCCUUUUGUAUAAAAUAGACAAAUAGAAAUGGUCCAAUUAGUUUCCUUUUUAAUAUGCUGAAAAUAAGCAGGUGG: 1.94 ratio
UGUACUAGUAUCCUACCAGCCUACCAACCUCUCGUCUGCACAGCUUCAGAUGUUACCGUCUAGCUAGAUUUUUAUUUAAAAUAUGAAAAACUGCUUUUCCCAAGACGUUUUUUAAAAAAA: 1.16 ratio
CAGUUUGUAUGUACAUUACUCACAUUCCUCCUAUUGUGUUUGGGGAAAACAAAGACAUUUUAGCCUUUUUUUAAGGUUCUUGAUUUAAUUUGAAAUGUUAUUUGGUUGCAUGAAGUUGCC: 0.35 ratio
CAGCAGAUUCUCUUAUAGGGAGAGCUGCACAUAUUGCAGUUCUUGAUUCAGAAAUAUUUUUAGAAAAAUUCUUUCUUGUUGCUGCCCUAAAAUACUUUCAGUAGAGAAAAACAUUGUAAG: 0.507 ratio

Series 2
Target: Ras GTPase-activating protein-binding protein 1, RRM domain (G3BP1, Homo sapiens, UniProt Q13283)
Chain of UniProt Q13283 (whole entry, looked up): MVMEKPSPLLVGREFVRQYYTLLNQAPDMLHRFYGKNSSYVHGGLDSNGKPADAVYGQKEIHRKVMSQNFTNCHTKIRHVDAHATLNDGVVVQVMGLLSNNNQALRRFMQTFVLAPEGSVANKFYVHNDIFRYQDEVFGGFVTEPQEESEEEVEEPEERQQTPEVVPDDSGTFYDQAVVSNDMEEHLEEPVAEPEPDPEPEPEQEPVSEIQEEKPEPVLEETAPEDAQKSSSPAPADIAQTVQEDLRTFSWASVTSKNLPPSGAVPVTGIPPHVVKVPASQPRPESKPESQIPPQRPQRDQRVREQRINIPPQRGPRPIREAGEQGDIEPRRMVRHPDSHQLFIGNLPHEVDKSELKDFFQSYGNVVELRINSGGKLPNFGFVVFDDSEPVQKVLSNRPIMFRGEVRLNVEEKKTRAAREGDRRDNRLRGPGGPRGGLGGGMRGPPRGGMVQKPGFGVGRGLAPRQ
Method: RNA Bind-n-Seq
Molecule type: RNA
Sample: in vitro
Tested at: 1 µM
Notes: whole 134-nt RNA, ends assumed
With: 150 mM KCl
Baseline: input library
Reading: higher = stronger binding
Endpoint: log2 enrichment
Shared flanks, not repeated: GGGAGUUCUACAGUCCGACGAUC … UGGAAUUCUCGGGUGUCAAGG
AAGUCCUGUGCUACACAUCGUAUGUACCGAAUCGGGAAAGGGAAAAAGGGUUUGGGAAAGUAUUAUGUUACGCCGUUCGGAUCUGCACUU: 0.533
GUCCUGUGCUACACAUCGUAUGUACCGAAUCGGAAAAAGGGGAAAAAGGGAAAAAGGGGAAAGUAUUAUGUUACGCCGUUCGGAUCUGCA: 0.228
UGGGAGGUGGAUUUUGUUUAUUUUUUUAGCUCAUUUCCAGGGGUGGGAAUUUUUUUUUAAUAUGUGUCAUGAAUAAACUUGUUUUUGAAA: 1.52
CCUCAAGUCCUGUGCUACACAUCGUAUGUACCGAAUCGGGGCGGCGGGCGGGGAAAGUAUUAUGUUACGCCGUUCGGAUCUGCACUUCCA: 0.0608
GUCCUGUGCUACACAUCGUAUGUACCGAAUCGGGGAAAAAGGGGUUUGGGGAAAGGGGAAAGUAUUAUGUUACGCCGUUCGGAUCUGCAC: 1.61
UUUGGCAAUGAGAUCUAAACCAGACAAAGACCUCCUUAUGGAAGAAGAUGACAUGGCCUUGGCAAAUGUAGUCAUGCAGGAAGCUCAGAA: 0.47
UGGGAGGUGGAUUUUGUUUAUUUUUUUAGCUCAUUUCCAGGGGUGGGAAUUUUUAUUUAAUAUGUGUCAUGAAUAAAGUUGUUUUUGAAA: 1.57
UCCUGUGCUACACAUCGUAUGUACCGAAUCGGGGCCCCCGGGCCCCCGGGGCCCCCGGGAAAGUAUUAUGUUACGCCGUUCGGAUCUGCA: -0.701

Series 3
Target: Transcriptional repressor CTCF (CTCF, Homo sapiens, UniProt P49711, residues 1-727, full length assumed)
Chain of UniProt P49711 (whole entry, looked up): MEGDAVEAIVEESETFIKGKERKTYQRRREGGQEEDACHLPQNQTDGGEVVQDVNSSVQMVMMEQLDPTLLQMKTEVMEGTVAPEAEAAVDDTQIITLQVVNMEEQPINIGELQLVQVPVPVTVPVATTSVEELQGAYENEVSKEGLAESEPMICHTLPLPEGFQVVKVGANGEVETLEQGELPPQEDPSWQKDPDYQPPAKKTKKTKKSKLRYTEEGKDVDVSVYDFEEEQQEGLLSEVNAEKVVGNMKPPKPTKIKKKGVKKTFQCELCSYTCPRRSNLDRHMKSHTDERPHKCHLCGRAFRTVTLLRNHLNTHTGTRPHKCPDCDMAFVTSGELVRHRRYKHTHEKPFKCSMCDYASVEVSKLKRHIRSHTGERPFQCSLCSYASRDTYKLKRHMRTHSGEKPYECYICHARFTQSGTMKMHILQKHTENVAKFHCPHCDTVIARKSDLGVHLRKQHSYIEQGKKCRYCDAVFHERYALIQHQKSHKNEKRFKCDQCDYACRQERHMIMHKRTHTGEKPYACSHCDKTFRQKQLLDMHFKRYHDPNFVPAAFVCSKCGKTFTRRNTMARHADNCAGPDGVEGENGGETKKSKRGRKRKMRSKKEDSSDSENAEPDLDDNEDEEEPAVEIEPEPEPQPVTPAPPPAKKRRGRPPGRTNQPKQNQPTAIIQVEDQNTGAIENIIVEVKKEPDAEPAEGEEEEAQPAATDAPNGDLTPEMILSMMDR
Method: protein-binding microarray
Molecule type: double-stranded DNA, one strand shown
Sample: in vitro
Tested at: not given
Notes: k-mer, scored over probes, only values ≥0.25
Reading: higher = stronger binding
Endpoint: E-score
ATAATATC: 0.268
CCCGCGCG: 0.257
AGCGCGAT: 0.338
AACATAAC: 0.271
CGCGCGCA: 0.377
CATATATG: 0.341
GTATTGCA: 0.288
AAAGGCCG: 0.293

Mixed results
O=Nc1c(-c2c(O)[nH]c3ccccc23)[nH]c2ccccc12
remaining activity (G protein-coupled receptor kinase 6 (GRK6, Homo sapiens, UniProt P43250); enzyme activity, inhibitor; 0.5 µM; baseline: control): 89.4%

Some of these lines once more (series 3):
AAAGGCCG: 0.293
